# Measurements collected from several papers.
# A part holds a random share of what one study measured. Positions count from the first letter of the parent shown.

# Set 1
# Target: Histone acetyltransferase KAT6A, winged helix 2, GST fusion (KAT6A, Homo sapiens, UniProt Q92794, residues 85-181)
# Technique: protein binding microarray
# Form: double-stranded DNA, one strand shown
# Sample: in vitro
# Tested at: not given
# Setting: 8-mer, flanks averaged, mean of 2 arrays, mostly near background
# Baseline: not given
# Reading: higher = stronger binding
# Residues (chain): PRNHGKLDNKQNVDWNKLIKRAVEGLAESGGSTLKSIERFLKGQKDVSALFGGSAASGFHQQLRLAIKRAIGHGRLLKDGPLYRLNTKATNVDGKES
Oligonucleotide,E-score
CGTCGTTA,-0.149
ACCTGGCG,0.0964
GGTCAGGA,0.102
AGGCGCCA,-0.0254
CCCTCCGG,0.186
ATGACGAC,-0.0092
ATCCAAGC,-0.109
CTACGAAC,0.0544
ACTTTTGG,0.0522
TACGAGCA,-0.167
AAGGATAC,-0.0893
AGTTAGCG,0.0504
AAGGGAGG,0.0225
ATTTTTAC,-0.00773
GGCCCGAA,0.148
AGAGATTC,-0.102
CAGATAAA,-0.0119
GCAGGATA,-0.0414
GAGGTCCA,0.0936
CTGTTTAA,-0.0175
AATTTGTG,0.103
AACTACAG,-0.0527
GAGATCTC,-0.191
AGCTTGAT,-0.0299
CGTAGATA,-0.116

# Set 2
# Target: ABI1, truncated, D143A, DHFR fusion (Arabidopsis thaliana)
# Technique: DHFR PCA, deep sequencing
# Sample: yeast
# Setting: methotrexate growth selection, single substitutions
# With: (+)-ABA 0.032 µM
# Baseline: wild-type fitted maximum
# Reading: higher = stronger binding
# Parent: PYL1, truncated, DHFR fusion (Arabidopsis thaliana); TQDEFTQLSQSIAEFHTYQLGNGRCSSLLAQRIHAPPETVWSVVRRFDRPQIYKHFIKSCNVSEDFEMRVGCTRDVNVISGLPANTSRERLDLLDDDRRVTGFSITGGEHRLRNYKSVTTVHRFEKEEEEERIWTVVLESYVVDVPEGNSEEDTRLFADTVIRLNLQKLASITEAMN
Substitution,relative binding score [%]
H110C,27.5
E139K,5.21
V100Q,2.62
N177M,29.5
S150N,15.6
S59E,24
L156Q,6.91
V145D,-3.22
R123A,47.5
E131F,16.4
Q2D,30.2
F157M,3.22
T135R,-3.82
S27F,-4.49
F103D,4.99
L156R,0.734
V62G,-1.46
R74K,2.02

# Set 3
# Target: ATF2, bZIP domain (human)
# Technique: DHFR protein complementation
# Sample: yeast
# Setting: single substitutions, most at no-binding floor
# Baseline: wild-type JUN-FOS pair
# Reading: higher = stronger binding
# Parent: JUN, bZIP domain (human); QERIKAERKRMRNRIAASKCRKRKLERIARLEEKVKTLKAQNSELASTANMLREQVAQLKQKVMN; partner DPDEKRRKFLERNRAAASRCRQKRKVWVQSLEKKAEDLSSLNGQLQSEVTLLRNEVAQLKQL
Substitution,binding fitness [natural log]
A57Q,-1.42
S47T,-1.29
Q41H,-1.5
K39A,-1.35
V56L,-1.46
T48C,-1.42
M51W,-1.45
A40D,-1.41
E33A,-1.43
S47L,-1.43
R30N,-1.32
L59S,-1.32
Q55Y,-1.41
N42R,-1.43
I28N,-1.59
E54D,-1.35
E54Y,-1.31
L38F,-1.38
E32K,-1.37
S47K,-1.19
K34L,-1.29
L45W,-1.45
M51H,-1.48
I28C,-1.26

# Set 4
# Target: CDC34 UBC core domain (UniProt P49427)
# Chain of UniProt P49427 (whole entry, looked up): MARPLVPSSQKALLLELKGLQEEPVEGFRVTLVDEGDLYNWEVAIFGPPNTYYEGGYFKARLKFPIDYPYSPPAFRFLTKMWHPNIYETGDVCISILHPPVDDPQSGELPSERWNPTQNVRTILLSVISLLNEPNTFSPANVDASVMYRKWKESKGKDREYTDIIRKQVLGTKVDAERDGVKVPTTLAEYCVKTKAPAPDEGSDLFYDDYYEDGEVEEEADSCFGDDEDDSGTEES
# Technique: yeast two-hybrid
# Sample: yeast
# Setting: mostly zero background
# Baseline: not given
# Reading: higher = stronger interaction
# B1: RNF122 RING domain (UniProt Q9H9V4); chain AKKLQLYGQTCAVCLEDFKGKDELGVLPCQHAFHRKCLVKWLEVRCVCPMCNKPIASPSEAT
# B2: RNF183 RING domain (UniProt Q96D59); chain EQQGRELEAECPVCWNPFNNTFHTPKMLDCCHSFCVECLAHLSLVTPARRRLLCPLCRQPTVLASGQP
# B3: RLIM RING domain (UniProt Q9NVW2); chain SFGENDALKTCSVCITEYTEGNKLRKLPCSHEYHVHCIDRWLSENSTCPICRRAVLASGNRE
# B4: MKRN2 RING domain (UniProt Q9H000); chain FAFQASQDKVCSICMEVILEKASASERRFGILSNCNHTYCLSCIRQWRCAKQFENPIIKSCPECRVISEFVIPSV
# B5: ANAPC11 RING domain (UniProt Q9NYG5); chain GICRMAFNGCCPDCKVPGDDCPLVWGQCSHCFHMHCILKWLHAQQVQQHCPMCRQEWKFKE
# B6: RNF187 RING domain (UniProt Q5TA31); chain ALPAGPAEAACALCQRAPREPVRADCGHRFCRACVVRFWAEEDGPFPCPECADDCWQRAVEP
Molecule,lacZ reporter activity
FVKTVEDKYKCEKCHLVLCSPKQTECGHRFCESCMAALLSSSSPKCTACQESIVKDKVF (TRAF3 RING domain (UniProt Q13114)),0
B1 (RNF122 RING domain),0
AEADPLGRFTCPVCLEVYEKPVQVPCGHVFCSACLQECLKPKKPVCGVCRSALAPGVRAV (RNF114 RING domain (UniProt Q9Y508)),0
B2 (RNF183 RING domain),0
QVQSRTKIEECVVCSDKKAAVLFQPCGHMCACENCANLMKKCVQCRAVVERRVPFI (MIB1 RING domain (UniProt Q86YT6)),0
B3 (RLIM RING domain),0
YPEEVDDDLICHICLQALLDPLDTPCGHTYCTLCLTNFLVEKDFCPMDRKPLVLQHCKK (LNX1 RING domain (UniProt Q8TBB1)),0
B4 (MKRN2 RING domain),0
B5 (ANAPC11 RING domain),0
LGTKLEAKYLCSACRNVLRRPFQAQCGHRYCSFCLASILSSGPQNCAACVHEGIYEEGIS (TRAF2 RING domain (UniProt Q12933)),0
B6 (RNF187 RING domain),0
YCEMGSTFQLCKICAENDKDVKIEPCGHLMCTSCLTAWQESDGQGCPFCRCEIKGTEPII (CBLB RING domain (UniProt Q13191)),0

# Set 5
# Partner: ARF20 484-590 (Arabidopsis thaliana, UniProt Q9C7I9)
# Technique: two-hybrid
# Baseline: out of 4 tests
# Reading: higher = firmer interaction
# B7: IAA32 (Arabidopsis thaliana, UniProt Q8RYC6); chain MDPNTPADFFKGSSKFHTYYSQTKKGGGVIDLGLSLRTIQHETYLPPARMIGLDGYGELIDWSQPSYNSITQLKSEDTGHQRLAQGYYNNEGESRGKYAYVKVNLDGLVVGRKVCLVDQGAYATLALQLNDMFGMQTVSGLRLFQTESEFSLVYRDREGIWRNVGDVPWKEFVESVDRMRIARRNDALLPF
# B8: ARF7 1030-1164 (Arabidopsis thaliana, UniProt P93022); chain PAQTQRMRTYTKVQKRGSVGRSIDVNRYRGYDELRHDLARMFGIEGQLEDPQTSDWKLVYVDHENDILLVGDDPWEEFVNCVQSIKILSSAEVQQMSLDGNFAGVPVTNQACSGGDSGNAWRGHYDDNSATSFNR
# B9: ARF2 727-859 (Arabidopsis thaliana, UniProt Q94JM3); chain TKTNSSRSCTKVHKQGIALGRSVDLSKFQNYEELVAELDRLFEFNGELMAPKKDWLIVYTDEENDMMLVGDDPWQEFCCMVRKIFIYTKEEVRKMNPGTLSCRSEEEAVVGEGSDAKDAKSASNPSLSSAGNS
# B10: IAA16 (Arabidopsis thaliana, UniProt O24407); chain MINFEATELRLGLPGGNHGGEMAGKNNGKRGFSETVDLKLNLSSTAMDSVSKVDLENMKEKVVKPPAKAQVVGWPPVRSFRKNVMSGQKPTTGDATEGNDKTSGSSGATSSASACATVAYVKVSMDGAPYLRKIDLKLYKTYQDLSNALSKMFSSFTIGNYGPQGMKDFMNESKLIDLLNGSDYVPTYEDKDGDWMLVGDVPWEMFVDSCKRIRIMKGSEAIGLAPRALEKCKNRS
# B11: IAA27 (Arabidopsis thaliana, UniProt Q9ZSY8); chain MSVSVAAEHDYIGLSEFPTMEATTMSDKTKTRDNNNGLNFKATELRLGLPGSESPERVDSRFLALNKSSCPVSGAKRVFSDAINDSNKWVFSPGSTTATGDVGSGSGPRTSVVKDGKSTTFTKPAVPVKEKKSSATAPASKAQVVGWPPIRSFRKNSMASSQSQKPGNNSETEEAEAKSGPEQPCLYVKVSMEGAPYLRKIDLKTYKSYLELSSALEKMFSCFTIGQFGSHGGCGRDGLNESRLTDLLRGSEYVVTYEDKDSDWMLVGDVPWEMFICSCKKLRIMKSSEAIGLAPRVMEKCRSRN
# Target sequence (chain): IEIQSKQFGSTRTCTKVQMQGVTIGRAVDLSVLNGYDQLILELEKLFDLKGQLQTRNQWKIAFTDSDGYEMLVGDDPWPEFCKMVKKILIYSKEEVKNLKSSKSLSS
Molecule,positive tests
B7 (IAA32),0
B8 (ARF7 1030-1164),2
B9 (ARF2 727-859),1
B10 (IAA16),0
B11 (IAA27),1

# Set 6
# Target: CCNA2, cyclin fold, Cln2 fusion (human)
# Technique: yeast growth competition, sequencing
# Sample: yeast
# Setting: strong parent motif
# Baseline: not given
# Reading: higher = stronger binding
# Parent: INSM1 docking peptide (human); PKAIRKLHFEDEV; partner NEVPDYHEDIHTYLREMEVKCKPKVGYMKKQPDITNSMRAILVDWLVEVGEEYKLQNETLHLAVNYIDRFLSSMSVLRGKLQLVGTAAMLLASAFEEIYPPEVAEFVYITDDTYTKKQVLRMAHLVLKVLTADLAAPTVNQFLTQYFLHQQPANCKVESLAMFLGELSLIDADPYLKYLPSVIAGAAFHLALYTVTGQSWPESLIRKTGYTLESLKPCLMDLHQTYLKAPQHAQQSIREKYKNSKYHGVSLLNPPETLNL
Substitution,normalised enrichment score
PWAIRKLHFEDEV [K2W],3.6
PKAIRKLHCEDEV [F9C],0.0353
PKAIRKLHFSDEV [E10S],5.1
PKRIRKLHFEDEV [A3R],1.64
PKAIRKLFFEDEV [H8F],4.83
PRAIRKLHFEDEV [K2R],5.34
PKADRKLHFEDEV [I4D],1.04
PKAIRKLHFWDEV [E10W],4.32
PKAITKLHFEDEV [R5T],1.16
PKAIRKLHKEDEV [F9K],0.0792
PKAIRKLHFECEV [D11C],5.22
PKAFRKLHFEDEV [I4F],5.78
PKVIRKLHFEDEV [A3V],5.53
PKAIRKLHFGDEV [E10G],5.55
PKAIWKLHFEDEV [R5W],0.655
PKYIRKLHFEDEV [A3Y],3.31
PKAIRVLHFEDEV [K6V],3.56
PKAIRKLHFEDNV [E12N],4.87
PKAIRKLGFEDEV [H8G],2.94
PKAIRKLHFENEV [D11N],5.32
PKAIRKVHFEDEV [L7V],0.855
PLAIRKLHFEDEV [K2L],4.26
PKAIRKLHFPDEV [E10P],5.35
PKAIRKLHFEVEV [D11V],4.54
PKEIRKLHFEDEV [A3E],0.575

# Excerpt of the above (set 6):
Substitution,normalised enrichment score
PKAIRKLHCEDEV [F9C],0.0353
PKVIRKLHFEDEV [A3V],5.53
PKAIWKLHFEDEV [R5W],0.655
PKAIRKLGFEDEV [H8G],2.94
PKAIRKLHFEVEV [D11V],4.54
PKAIRKLFFEDEV [H8F],4.83
PKAIRKLHKEDEV [F9K],0.0792
PKAIRKLHFGDEV [E10G],5.55
PKAIRKLHFECEV [D11C],5.22
PKAIRVLHFEDEV [K6V],3.56
PRAIRKLHFEDEV [K2R],5.34
PKYIRKLHFEDEV [A3Y],3.31
